Experimental data of several laboratories.
Parts stem from different laboratories: compare values within a part only. Changes are numbered by the printed parent chain.

Block 1
Target: Prothrombin, mature alpha-thrombin (F2, Homo sapiens, UniProt P00734)
Method: aptamer microarray, sandwich
Molecule type: DNA with 2'F-ANA
Matrix: in vitro
Concentration: 200 nM
Notes: whole 15-mer aptamer, many near background
With: Cy3 exosite-II aptamer, 400 nM
Direction: higher = stronger binding
Sequence: GGTTGGTGTGGTTGG
Modification	mean fluorescence intensity [a.u.]
2'F-ANA at 3 6 7 8 9 11 14	511
2'F-ANA at 4 5 7 9 12 14	46.6
2'F-ANA at 3 5 6 7 9 12 14	54.4
2'F-ANA at 1 2 3 4 7 10 12 13	63.1
2'F-ANA at 2 3 4 5 7 8 9 12	181
2'F-ANA at 1 3 8 11 12 13	462
2'F-ANA at 3 5 6 8 10 14	54.6
2'F-ANA at 2 4 7 8 9 10 11 13 14	105
2'F-ANA at 1 2 3 7 13	194

Block 2
Target: CEP164, C-terminal peptide (human)
Method: DHFR complementation, deep sequencing
Matrix: yeast
Notes: single substitutions, model-inferred values
Relative to: wild type
Direction: higher = weaker binding
Starting sequence: PDZK1, PDZ domain 2 (human); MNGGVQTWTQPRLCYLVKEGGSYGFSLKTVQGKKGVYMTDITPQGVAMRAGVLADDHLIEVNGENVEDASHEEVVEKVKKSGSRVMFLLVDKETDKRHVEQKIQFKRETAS; partner HNRVKVYRF
Substitution	binding free energy change [kcal/mol]
V78E	2.11
L89R	1.66
T42P	0.531
V85Y	1.88
K102N	-0.0816
Y15N	0.102
H57R	-0.618
N2F	0.00395

Block 3
Target: CCNA1, cyclin fold, Cln2 fusion (human)
Method: yeast growth competition, sequencing
Matrix: yeast
Notes: weak parent motif
Relative to: not given
Direction: higher = stronger binding
Starting sequence: CENPC docking peptide (human); VKTKKRLNFDDKV
Substitution	normalised enrichment score
D11A	0.439
K12A	0.814
L7A	0.232
F9L	-0.0789
R6A	0.268
V1A	0.312
K4A	0.174

Mixed results
Substance	target	assay	test system	conditions	scale	endpoint	value
PhoQ, residues 284 288 289 292 302 303 SSCLAV	PhoP, residues 12 14 15 18 19 GHCSL (Escherichia coli, UniProt P23836)	Sort-seq, measured: YFP reporter	E. coli	PhoQ-PhoP variant library, with: 10 µM Mg2+	relative to: high Mg2+ state, higher = stronger signaling	fold induction	15.6

Repeated from above (block 2):
Substitution	binding free energy change [kcal/mol]
K102N	-0.0816
Y15N	0.102
H57R	-0.618
N2F	0.00395
